Results from different studies.
Numbered parts are unrelated; each lists some results of a single study. Substitutions count along the parent as printed.

Set 1
Target: Fragile X messenger ribonucleoprotein 1, C-terminal low-complexity region (Fmr1, Mus musculus, UniProt P35922)
Method: RNA Bind-n-Seq
Form: RNA
Medium: in vitro
Tested at: 200 nM
Setting: whole 134-nt RNA, ends assumed
Added: 150 mM KCl
Reference: input library
Direction: higher = stronger binding
`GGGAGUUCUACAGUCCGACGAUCUGACUUUAGGAGAUACCUUAACUCGACGUUCCAUUAGCCAGCAGAAGUCCGGAGUUUCCAUUACCAUUGAUGACCCAGUCCGAACUGCCCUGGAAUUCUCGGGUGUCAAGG` has a log2 enrichment of -0.204.
The log2 enrichment of `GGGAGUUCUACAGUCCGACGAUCUCCUGUGCUACACAUCGUAUGUACCGAAUCAAACCCCCCCAAAUUUUUAAACCCCCAAAAAAGUAUUAUGUUACGCCGUUCGGAUCUGCAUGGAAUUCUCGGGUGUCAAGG` is reported as -0.108.
With `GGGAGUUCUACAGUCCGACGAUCUCCUGUGCUACACAUCGUAUGUACCGAAUCAAAUUUAAAUUUUUUUAAACCCCCCCAAAAAAGUAUUAUGUUACGCCGUUCGGAUCUGCAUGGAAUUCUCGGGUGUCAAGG` the log2 enrichment was 0.322.
`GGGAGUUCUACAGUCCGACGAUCGGGACGUCAGCAUCGGCAUCAAGUGUGCCCCUGGAGUGGUAGGCCCCGCCGAAGCUGACAUCGACUUCGACAUCAUCCGCAAUGACAAUGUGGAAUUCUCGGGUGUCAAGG` gave a log2 enrichment of -2.
For `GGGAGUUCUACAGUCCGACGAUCUGGCCCUGGUGGCAUGCGGGGAGGAAGAGGUGGCCUCAUGGAUCGUGGUGGUCCCGGUGGAAUGCUCAGAGGUGGCCGUGGUGGAGACAGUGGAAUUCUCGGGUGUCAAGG`, the log2 enrichment was 0.0217.
For `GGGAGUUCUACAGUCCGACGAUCCUGUGCUACACAUCGUAUGUACCGAAUCGGGGUUUUUGGGGAAAAAGGGGAAAAAAAGGGGAAAGUAUUAUGUUACGCCGUUCGGAUCUGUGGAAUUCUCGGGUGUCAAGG`, the log2 enrichment was -0.161.
For `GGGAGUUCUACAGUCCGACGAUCAGUCCUGUGCUACACAUCGUAUGUACCGAAUCGGCCCCCGGGCCCCCGGCCCCCGGGGAAAGUAUUAUGUUACGCCGUUCGGAUCUGCACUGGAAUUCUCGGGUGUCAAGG`, the log2 enrichment was -0.0468.
For `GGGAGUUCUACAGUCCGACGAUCGCAGGAAGCAAAAACAAAUGGAAAUGCUUCGGAUAGUGGCAGGGGUGGGGGUUGCUAAGGAAAGGGUGGGAUGGGAGUGGGUAAAGAGUUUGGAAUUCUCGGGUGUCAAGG`, the log2 enrichment was -0.0437.
`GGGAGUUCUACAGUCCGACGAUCCUGUGCUACACAUCGUAUGUACCGAAUCGGGAAAAAAAGGGAAAAAAAGGGGAAAAAAAGGGAAAGUAUUAUGUUACGCCGUUCGGAUCUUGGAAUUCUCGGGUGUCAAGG` has a log2 enrichment of -0.477.

Set 2
Target: RNA binding protein fox-1 homolog 2, RRM domain, GST-SBP tag (RBFOX2, Homo sapiens, UniProt O43251-10, residues 100-194)
Method: RNA Bind-n-Seq
Form: RNA
Medium: in vitro
Tested at: 365 nM
Setting: natural RNA segment, single round, ends assumed
Reference: no-protein control
Direction: higher = stronger binding
Construct (chain): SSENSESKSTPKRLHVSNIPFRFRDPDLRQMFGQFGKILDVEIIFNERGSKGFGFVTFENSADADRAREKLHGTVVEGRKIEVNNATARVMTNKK
`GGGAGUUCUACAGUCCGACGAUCAUGCUUAAAAGGUUGCAUACUGAGCCAAGUAUAAUUUUUUGUAAUGUGUGAAAAAGAUGCCAAUUAUUGUUACACAUUAAGUAAUCAAUAAAGAAAACUUCCAUAGCUAUUGGAAUUCUCGGGUGCCAA` — result for “RBNS enrichment (R)”: 0.292.
`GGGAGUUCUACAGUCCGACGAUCCUUAGUAGAUAAAUAGUAAUAAUAAUAAUAAUACAAUUGAGUUAUCAGCCACAAUUCCUUUUGGAACUGUUACACUCUGCCUCUGGUCCCUCCAACGUGGUCCUCUUCCUUGGAAUUCUCGGGUGCCAA`: “RBNS enrichment (R)” 0.301.
For `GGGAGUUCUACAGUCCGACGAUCAACUAAUUUUUGGCUUAAGUCAGAACAACUGGCCAAAAUUGAAGUCAUAUUUGAGGGGGGAAAUGGCAUACGCAAUAUUAUAUUAUAUUGGAUAUUUAUGUUCACACAGGUGGAAUUCUCGGGUGCCAA`, “RBNS enrichment (R)” read 0.42.
`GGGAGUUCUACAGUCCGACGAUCUUUGCUCUUUCAGCUAUUCUAGAGUGGCCUGUGAGCAAAUGAACUUCUCUCUCUCUCUCUCUCUCUCUCUCUUUCUUUCUCUCUCUCUCUCCCUUCCUUCCUUCCUUCCUUGGAAUUCUCGGGUGCCAA` — result for “RBNS enrichment (R)”: 1.01.
`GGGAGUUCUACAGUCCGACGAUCGCUGAAGGUUUUACAUUACGUUUUCAAUUAAGUUGCCAACGUUUUAACAACUGGAGAAUGGUAUUCCAGGCCCCAAGAAACUUUGCUUAGGAUUGAUUCUGAGAUGACACUGGAAUUCUCGGGUGCCAA`: “RBNS enrichment (R)” 0.361.
`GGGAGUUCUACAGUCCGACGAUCUGAGGCUGAACCCUCUCAAAGGGCUGUCACCAUCACCUGCUGCUAGGACACUACAAAACAAUCAAAUAAUUCUUUUCUGUAAUCCAAUAUGCAGCAAGCAAGGGUGACCUUGGAAUUCUCGGGUGCCAA`: “RBNS enrichment (R)” 0.267.
`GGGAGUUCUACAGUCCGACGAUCCACCUGCCUGGGGCCUCGCAGCGGGGCCAGGGCUCCGCCUGCUGAUCGGGGGUUGUGAGCAGCGCGGCCUGGACGCGGGGCACUCUCAGGGGGCUGUGUCUGCGUGUCAGUGGAAUUCUCGGGUGCCAA` — result for “RBNS enrichment (R)”: 0.729.
Under “RBNS enrichment (R)”, `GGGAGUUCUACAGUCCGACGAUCGAUUGUAUUUCCAAUUUCUUGUUCAUGUAAGAUUUCAAUAAAACUCAAAAAUCUAUUCAAAACAUCACCUAUUUCAAAUUCAAUUGUGUCUAAAACAUUACUUUAUUCGUUGGAAUUCUCGGGUGCCAA` is recorded as 0.448.

Set 3
Target: Sal-like protein 4, full length isoform B (SALL4, Homo sapiens, UniProt Q9UJQ4-2, residues 1-616)
Method: universal PBM
Form: double-stranded DNA, one strand shown
Medium: in vitro
Tested at: not given
Setting: 8-mer, flanks averaged, mean of replicates
Direction: higher = stronger binding
Target sequence (chain): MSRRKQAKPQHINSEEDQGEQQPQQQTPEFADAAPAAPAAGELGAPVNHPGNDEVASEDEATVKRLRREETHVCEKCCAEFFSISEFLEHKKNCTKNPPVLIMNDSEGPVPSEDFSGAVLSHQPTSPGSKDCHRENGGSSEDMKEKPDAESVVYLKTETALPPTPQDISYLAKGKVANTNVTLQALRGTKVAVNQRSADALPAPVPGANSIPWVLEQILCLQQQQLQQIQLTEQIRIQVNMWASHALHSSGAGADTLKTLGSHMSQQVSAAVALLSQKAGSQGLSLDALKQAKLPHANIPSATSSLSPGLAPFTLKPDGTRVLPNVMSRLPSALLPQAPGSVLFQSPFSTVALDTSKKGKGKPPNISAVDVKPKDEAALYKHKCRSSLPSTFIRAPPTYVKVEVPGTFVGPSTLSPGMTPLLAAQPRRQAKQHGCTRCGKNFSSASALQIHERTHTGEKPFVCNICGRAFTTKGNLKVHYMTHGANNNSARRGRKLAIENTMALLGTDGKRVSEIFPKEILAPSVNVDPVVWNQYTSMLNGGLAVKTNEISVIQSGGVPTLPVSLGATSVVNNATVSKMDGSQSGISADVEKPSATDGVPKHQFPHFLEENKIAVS
The E-score of `ATCTCGTG` is reported as -0.0999.
`AATTGGTC` has an E-score of 0.131.
For `GCTGTACA`, the E-score was -0.00563.
`AGGGACAT` has an E-score of 0.0293.
The E-score of `CAGCTTCA` is reported as 0.0197.
With `TCACTCAA` the E-score was 0.0655.
`AATTTTGT` gave an E-score of 0.32.
With `AACGCGGC` the E-score was -0.263.
`GGGATAAC` gave an E-score of 0.0294.
For `CAGTATAA`, the E-score was 0.31.
`ACCGCATG` has an E-score of -0.0935.
`ACTGTATG` has an E-score of 0.191.
`AGGTCCCG` gave an E-score of -0.248.
For `GGACCTAA`, the E-score was -0.116.
The E-score of `AGGATCTA` is reported as -0.0284.
The E-score of `CCAGCTTA` is reported as 0.0238.
The E-score of `ACCTGTCC` is reported as -0.0656.
`GGACAAGA` has an E-score of -0.081.
With `AGAAAAAT` the E-score was 0.326.

Set 4
Target: ABI1, truncated, D143A, DHFR fusion (Arabidopsis thaliana)
Method: DHFR PCA, deep sequencing
Medium: yeast
Setting: methotrexate growth selection, single substitutions
Added: (+)-ABA 0.11 µM
Reference: wild-type fitted maximum
Direction: higher = stronger binding
Parent: PYL1, truncated, DHFR fusion (Arabidopsis thaliana); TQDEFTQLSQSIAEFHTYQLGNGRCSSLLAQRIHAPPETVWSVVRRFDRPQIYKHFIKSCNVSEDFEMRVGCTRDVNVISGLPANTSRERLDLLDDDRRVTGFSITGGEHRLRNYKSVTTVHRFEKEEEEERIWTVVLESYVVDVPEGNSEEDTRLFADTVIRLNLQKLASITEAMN; partner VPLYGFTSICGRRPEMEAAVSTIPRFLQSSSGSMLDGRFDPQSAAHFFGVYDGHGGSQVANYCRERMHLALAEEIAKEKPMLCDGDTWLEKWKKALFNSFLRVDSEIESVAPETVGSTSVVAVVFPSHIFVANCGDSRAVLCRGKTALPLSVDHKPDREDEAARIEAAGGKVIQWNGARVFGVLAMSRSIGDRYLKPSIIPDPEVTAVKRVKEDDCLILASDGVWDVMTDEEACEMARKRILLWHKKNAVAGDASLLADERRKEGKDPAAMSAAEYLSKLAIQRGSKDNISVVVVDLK
Under “relative binding score”, `D96T` is recorded as -10.5%.
`E174P`: “relative binding score” 3.35%.
Under “relative binding score”, `V76L` is recorded as 10.9%.
`I133G` — result for “relative binding score”: 48.2%.
Under “relative binding score”, `K126F` is recorded as 17.4%.
Under “relative binding score”, `S104K` is recorded as 1.61%.
For `E127P`, “relative binding score” read 45.6%.
`L138W`: “relative binding score” -2.63%.
`E4Q` — result for “relative binding score”: 17.1%.
`D92F` — result for “relative binding score”: -5.31%.
`C25L` — result for “relative binding score”: 6.24%.
`L29P`: “relative binding score” 5.02%.
`H110N`: “relative binding score” 61%.
Under “relative binding score”, `K126L` is recorded as 29%.
`A158I` — result for “relative binding score”: 64.3%.
`F47A` — result for “relative binding score”: -0.393%.
`V161P`: “relative binding score” 5.16%.

Repeated from above (set 4):
For `E127P`, “relative binding score” read 45.6%.
`L138W`: “relative binding score” -2.63%.
`E4Q` — result for “relative binding score”: 17.1%.
`D92F` — result for “relative binding score”: -5.31%.
`C25L` — result for “relative binding score”: 6.24%.
`L29P`: “relative binding score” 5.02%.
`H110N`: “relative binding score” 61%.
Under “relative binding score”, `K126L` is recorded as 29%.
